Results gathered from unrelated publications.
Protocols differ between the studies behind these lines. Several values in a cell are separate wells, animals, samples, runs or records. Numbers after ± are the reported error.

| SMILES | tested on | assay | test system | setting | how to read | measurement | result |
| --- | --- | --- | --- | --- | --- | --- | --- |
| O=C(O)c1ccc(-c2nc(-c3ccccc3Cl)c3sccn23)cc1 | human CD34+ hematopoietic stem cells | megakaryocyte differentiation, flow cytometry, item: CD41a | – | 10 µM, day 3, together with: TPO | baseline: control | fold change | 1.21 fold and 1.14 fold and 1.08 fold and 1.13 fold and 1.18 fold and 1.23 fold and 1.15 fold and 1.29 fold |
| COc1ccc2c(c1)c(CC(=O)[Se]CC(=O)Nc1cccc(C(F)(F)F)c1)c(C)n2C(=O)c1ccc(Cl)cc1 | NCI60 renal subpanel | cytotoxicity, inhibitor | – | five-dose | – | CC50 | 8.52 µM |
| O=C1NC2(CC2)COc2ncc(F)cc2[C@H]2COCCN2c2ccn3ncc1c3n2 | – | – | Sprague-Dawley rat, female, brain | oral, 20 mg/kg/day, 4 weeks | – | organ weight | 1.89 ± 0.099 g |
| CC(C)CC(O)(CC(C)C)c1cn(C(=O)N2CCCC2)nn1 | mouse T-cells | SILAC proteomics, item: NIBAN | – | 1 nM, 6 h, unit not given | baseline: DMSO | protein level | 1.1 |
| CSCC[C@H](NC(=O)[C@@H](NC(=O)[C@H](CCC(N)=O)NC(=O)[C@H](CO)NC(=O)[C@@H](N)C(C)C)[C@@H](C)O)C(=O)N[C@@H](CCCNC(=N)N)C(=O)N[C@@H](CCC(N)=O)C(=O)N[C@H](C(=O)N[C@@H](C)C(=O)N[C@H](C(=O)N1CCC[C@H]1C(=O)N[C@@H](CC(C)C)C(=O)N[C@@H](CC(C)C)C(=O)N[C@@H](Cc1c[nH]c2ccccc12)C(=O)N[C@@H](Cc1ccccc1)C(=O)N[C@@H](Cc1c[nH]c2ccccc12)C(=O)N[C@H](C(=O)NCC(=O)N[C@@H](CO)C(=O)N[C@@H](CC(C)C)C(=O)NCCOCCOCCOCCOCCOCCOCCOCCOCCOCCOCCOCCOCCC(=O)N[C@@H](CS)C(N)=O)[C@@H](C)O)C(C)C)[C@@H](C)O | HCC515 | phage binding | – | – | baseline: targeting over control phage | selectivity ratio | 5.3 ± 3.4 |
| CC(C)(C)C(=O)OCOP(=O)(OCOC(=O)C(C)(C)C)C1CCCN(O)C1=O (centres unmarked) | SK-MEL-28 | – | – | – | – | log TGI | -5.94 log M |
| Cc1cc(Oc2nc(N3CC[C@@H](c4ccncc4)C3)ncc2F)[nH]n1 | MINO | cell proliferation | blood cancer | – | – | IC50 | 24.5 µM |
| O=C(C[Se]C(=O)c1ccco1)Nc1cccc(C(F)(F)F)c1 | NCI60 ovarian subpanel | cytotoxicity, inhibitor | – | five-dose | – | CC50 | 66.6 µM |
| CC(C)C[C@H](NC(=O)[C@H](CC(=O)O)NC(=O)CNC(=O)[C@@H](N)CCCNC(=N)N)C(=O)N[C@@H](C)C(=O)N[C@H](C(=O)N[C@@H](CC(C)C)C(=O)N[C@@H](CCCNC(=N)N)C(=O)N[C@@H](CCC(N)=O)C(=O)N[C@@H](CC(C)C)C(=O)N[C@@H](C)C(=O)N[C@@H](CCC(N)=O)C(=O)N[C@@H](CCC(=O)O)C(=O)N[C@@H](CC(=O)O)C(=O)NCC(=O)N[C@H](C(=O)N[C@H](C(=O)NCC(=O)N[C@H](C(=O)N[C@@H](CCCNC(=N)N)C(=O)NCCOCCOCCOCCOCCOCCOCCOCCOCCOCCOCCOCCOCCC(=O)N[C@@H](CS)C(N)=O)C(C)C)C(C)C)C(C)C)[C@@H](C)O | H1264 lung adenocarcinoma | cell binding, phage binding, item: output/input phage | – | 10 min, 37 °C | baseline: control phage | selectivity ratio | 1.3 ± 0.8 |
| COc1ccccc1-c1ccncc1C(=O)Nc1nnc(OCc2ccc(Cl)cc2)s1 | RPE-1 TP53-/- BRCA1-/- | – | – | 2 µM | baseline: untreated | colony survival | 36.2% and 45.9% |
| O=C(C[Se]C(=O)c1cccs1)Nc1cccc(C(F)(F)F)c1 | NCI60 prostate subpanel (PC-3, DU-145) | cell growth, inhibitor | – | five-dose | – | GI50 | 1.65 µM |
| CC(C)[C@H](NC(=O)[C@H](CCCNC(=N)N)NC(=O)[C@@H]1CCCN1C(=O)[C@@H](NC(=O)[C@H](C)NC(=O)[C@H](Cc1ccc(O)cc1)NC(=O)[C@H](CCC(N)=O)NC(=O)[C@H](CCCCN)NC(=O)[C@H](CCCNC(=N)N)NC(=O)[C@@H]1CCCN1C(=O)[C@H](CCC(=O)O)NC(=O)[C@@H](NC(=O)[C@H](C)N)[C@@H](C)O)[C@@H](C)O)C(=O)N[C@@H](Cc1ccccc1)C(=O)N[C@@H](Cc1c[nH]c2ccccc12)C(=O)N[C@H](C(=O)N[C@@H](CC(=O)O)C(=O)N[C@@H](C)C(=O)N1CCC[C@H]1C(=O)NCC(=O)NCCOCCOCCOCCOCCOCCOCCOCCOCCOCCOCCOCCOCCC(=O)N[C@@H](CS)C(N)=O)[C@@H](C)O | H1264 lung adenocarcinoma | cell binding, phage binding, item: output/input phage | – | 10 min, 37 °C | baseline: control phage | selectivity ratio | 3.9 ± 1.9 |
| O=C(C[Se]C(=O)c1ccccc1)Nc1cccc(C(F)(F)F)c1 | NCI60 ovarian subpanel | cell growth | – | 10 µM, 48 h, one-dose | – | mean growth percent | -70.2% |
| CC(=O)NCSC[C@H](NC(=O)[C@@H]1CCCN1C(=O)[C@H](C)NC(=O)[C@@H](NC(=O)CNC(=O)[C@@H](NC(=O)[C@H](Cc1c[nH]c2ccccc12)NC(=O)[C@H](C)NC(=O)CNC(=O)[C@H](CO)NC(=O)[C@H](C)NC(=O)[C@@H]1CCCN1C(=O)[C@H](Cc1c[nH]c2ccccc12)NC(=O)[C@H](C)NC(=O)[C@H](C)NC(=O)[C@@H](N)Cc1ccc(O)cc1)[C@@H](C)O)[C@@H](C)O)C(=O)N[C@@H](CO)C(=O)N[C@@H](C)C(=O)NCC(=O)N[C@H](C(=O)NCCOCCOCCOCCOCCOCCOCCOCCOCCOCCOCCOCCOCCC(=O)N[C@@H](CS)C(N)=O)[C@@H](C)O | H2087 | phage binding | – | 10 min, 37 °C | baseline: control phage | selectivity ratio | 79 ± 42 |
